Experimental data pooled from the literature.
A part holds a random share of what one study measured.
Sequence of UniProt P41279 (whole entry, looked up): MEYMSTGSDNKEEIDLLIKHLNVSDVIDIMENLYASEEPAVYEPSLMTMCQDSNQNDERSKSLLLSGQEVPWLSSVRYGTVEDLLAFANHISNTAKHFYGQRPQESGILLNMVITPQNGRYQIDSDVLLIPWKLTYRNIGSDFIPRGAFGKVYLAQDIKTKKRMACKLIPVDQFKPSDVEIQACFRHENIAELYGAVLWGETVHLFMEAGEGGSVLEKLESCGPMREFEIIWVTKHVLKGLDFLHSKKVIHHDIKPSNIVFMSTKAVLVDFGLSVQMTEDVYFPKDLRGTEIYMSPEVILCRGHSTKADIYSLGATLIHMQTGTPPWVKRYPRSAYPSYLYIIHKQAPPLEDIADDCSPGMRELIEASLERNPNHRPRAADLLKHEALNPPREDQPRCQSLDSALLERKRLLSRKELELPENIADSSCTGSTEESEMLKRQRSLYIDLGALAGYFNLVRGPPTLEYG

Study 1
Target: Cellular tumor antigen p53, full length (TP53, Homo sapiens, UniProt P04637, residues 1-393)
Technique: protein-binding microarray
Molecule type: hairpin DNA
Matrix: in vitro
Concentration: not given
Setting: whole hairpin DNA, median over replicate spots
Relative to: not given
Direction: higher = stronger binding
| Strand | median fluorescence |
| --- | --- |
| CGGACACGCCCGGGCATGTCTCCTGACATGCCCGGGCGTGTCCGACACTC (5mC at 7) | 16700 a.u. |
| CGGACATCGCCGGGCATGTCTCCTGACATGCCCGGCGATGTCCGACACTC (5mC at 36) | 13000 a.u. |
| CGGACGTGCCCGGGCATGTCTCCTGACATGCCCGGGCACGTCCGACACTC (5mC at 5) | 15100 a.u. |
| CCACACGTGGTGGCCTGCCTTCCTAGGCAGGCCACCACGTGTGGACACTC (5mC at 15) | 3510 a.u. |
| CCACACGTGGTGGTATGCCTTCCTAGGCATACCACCACGTGTGGACACTC | 4400 a.u. |
| CGGACATGCCCGCGCATGTCTCCTGACATGCGCGGGCATGTCCGACACTC (5mC at 13 31) | 12200 a.u. |
| CGGACATGCTCGGGCATGTCTCCTGACATGCCCGAGCATGTCCGACACTC | 16300 a.u. |
| CCAGACGTGGTGGCATGCCTTCCTAGGCATGCCACCACGTCTGGACACTC (5mC at 41) | 8060 a.u. |

Study 2
Target: RING finger protein unkempt homolog, zinc fingers 1-6, GST-SBP tag (UNK, Homo sapiens, UniProt Q9C0B0, residues 30-357)
Technique: RNA Bind-n-Seq
Molecule type: RNA
Matrix: in vitro
Concentration: not given
Setting: RNA with constant flanks, human-mouse chimeric sites, ends assumed
Relative to: input RNA pool
Direction: higher = stronger binding
Constant ends, left off below: GGGAGUUCUACAGUCCGACGAUC … CAACAGAGGAUUGAGCAUCA
Target sequence (chain): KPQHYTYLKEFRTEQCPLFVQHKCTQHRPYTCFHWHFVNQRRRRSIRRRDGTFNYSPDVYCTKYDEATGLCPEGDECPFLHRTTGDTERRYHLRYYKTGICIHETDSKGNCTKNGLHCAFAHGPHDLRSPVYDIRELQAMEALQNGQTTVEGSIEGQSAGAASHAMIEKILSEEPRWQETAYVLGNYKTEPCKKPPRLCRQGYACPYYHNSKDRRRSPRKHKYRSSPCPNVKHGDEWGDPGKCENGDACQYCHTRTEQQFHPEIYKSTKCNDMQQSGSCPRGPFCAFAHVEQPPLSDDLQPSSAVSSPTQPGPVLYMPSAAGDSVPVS
| Strand | bound/input enrichment |
| --- | --- |
| UCAUUUUUCUCUUUUCUUUCUUUCCUUAAAAGCCUAACUAAAGAUUAGGUUGUAAGAAAAACAGAAGCCAUGUUUCGAAGACCUGUGUUACAGGUAUUUCGUCAGUUUGUAAGACAUGAG | 0.163 ratio |
| CAGUCCCCGUGUCCCAGUGCAGGACGAGAACAUGGACAACUCAAAGCGGACCCUCUACUGUAGUUGAUGAUUCUCGAAAUGUGCUAUUAUUGUUUGUCUUUUUUUUUUUUUUUUUAAAGA | 0.63 ratio |
| GCGGCAGAAUCAUGGUGGACAUAAUGCAGCUCCCCAAGUCGCGCAUCAACGCCAGCAUGUUACCACAGUAUAUCGACCGGCCCGUGUGCUUCGUGGGGAAGCUGGAAAAGAUUCAUCCCA | 0.0811 ratio |
| UACUCAACUUUCUUGCCACGUUUUGAAUUCCAAGACAUUAUUCCUCCAGAUGACUUCCUAACGAGUGAUGAAGAAGUAGAUUUGGUUUUAUUUGGAACUAUGAGAGGACAAGUUGUUGGA | 0.219 ratio |
| GCUCUUGGGAAUGUAAUCAGCGCCUUGGGGGACAAGAGCAAGAGAGCCACCCAUGUCCCCUAUAGAGACUCUAAGCUGACAAGACUCUUGCAGGAUUCCCUUGGGGGUAAUAGCCAAACC | 0.172 ratio |
| GGGGAGAAACCUUACGAGUGUGUGCAGUGUGGGAAAUCGUAUAGUCAGAGCUCAAACCUCUUCAGACAUCAGAGAAGACACAAUGCAGAAAAACUUUUGAAUGUUGUGAAGGUUUAAGAA | 0.737 ratio |
| GUGCCCUCCUUCUCGCUGCGGAGCCCGAGCUGGGAACACCCCUUCCGCUGGUACCCUGCACACAGCCGCCUCUUCGAUCAAGCUUUCGGGGUGCCCCGGUUGCCCGAUGAGUGGUCGCAG | 0.0889 ratio |
| GUGUCCUGCUUUCAACUUAAAUCACUGAGGCAUCUCUACUGUUCUGUGAGCAUCAGGACUGUAGCGCUGUGUCACCACAGAUGAGAACAGAAGCAGCCUUUCUGUGGAGAGUGAGAAUGA | 0.141 ratio |

Study 3
Target: PABPC1L2, full length, GST fusion (mouse, UniProt A0ABA7IW68)
Technique: RNAcompete
Molecule type: RNA
Matrix: in vitro
Concentration: 20 nM
Setting: 7-mer, probes averaged, single round
Relative to: mean of 7-mers
Direction: higher = stronger binding
Residues (chain): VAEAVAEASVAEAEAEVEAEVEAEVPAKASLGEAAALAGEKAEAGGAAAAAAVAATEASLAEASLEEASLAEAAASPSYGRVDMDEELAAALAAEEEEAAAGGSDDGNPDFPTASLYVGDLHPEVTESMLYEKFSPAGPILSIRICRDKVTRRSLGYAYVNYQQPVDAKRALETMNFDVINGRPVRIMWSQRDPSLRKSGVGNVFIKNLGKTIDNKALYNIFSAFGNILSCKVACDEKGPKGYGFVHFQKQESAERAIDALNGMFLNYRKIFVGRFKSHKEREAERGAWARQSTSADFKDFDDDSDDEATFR
| Strand | 7-mer Z-score |
| --- | --- |
| UUGACUU | -0.324 |
| UACCUGU | -0.311 |
| GAAUCGA | -0.0138 |
| CUCAGAU | -0.0645 |
| CUUUGUU | -0.447 |
| GACCUGA | -0.248 |
| GUAUCUG | -0.175 |
| UUGCCCC | -0.394 |

Single results of other studies
| Compound | target | assay | conditions | how to read | endpoint | value |
| --- | --- | --- | --- | --- | --- | --- |
| CN(C)CCCn1cc(C2=C(c3c[nH]c4ccccc34)C(=O)NC2=O)c2ccccc21 | Mitogen-activated protein kinase kinase kinase 8 (MAP3K8, Homo sapiens, UniProt P41279) | enzyme activity, inhibitor | 0.5 µM | relative to: control | remaining activity | 93.9% |

Repeated from above (study 2):
| Strand | bound/input enrichment |
| --- | --- |
| GCUCUUGGGAAUGUAAUCAGCGCCUUGGGGGACAAGAGCAAGAGAGCCACCCAUGUCCCCUAUAGAGACUCUAAGCUGACAAGACUCUUGCAGGAUUCCCUUGGGGGUAAUAGCCAAACC | 0.172 ratio |
| GGGGAGAAACCUUACGAGUGUGUGCAGUGUGGGAAAUCGUAUAGUCAGAGCUCAAACCUCUUCAGACAUCAGAGAAGACACAAUGCAGAAAAACUUUUGAAUGUUGUGAAGGUUUAAGAA | 0.737 ratio |
| GCGGCAGAAUCAUGGUGGACAUAAUGCAGCUCCCCAAGUCGCGCAUCAACGCCAGCAUGUUACCACAGUAUAUCGACCGGCCCGUGUGCUUCGUGGGGAAGCUGGAAAAGAUUCAUCCCA | 0.0811 ratio |
| UCAUUUUUCUCUUUUCUUUCUUUCCUUAAAAGCCUAACUAAAGAUUAGGUUGUAAGAAAAACAGAAGCCAUGUUUCGAAGACCUGUGUUACAGGUAUUUCGUCAGUUUGUAAGACAUGAG | 0.163 ratio |
